Measurements of several laboratories.
A part holds a random share of what one study measured.
Sequence of UniProt P42681 (whole entry, looked up): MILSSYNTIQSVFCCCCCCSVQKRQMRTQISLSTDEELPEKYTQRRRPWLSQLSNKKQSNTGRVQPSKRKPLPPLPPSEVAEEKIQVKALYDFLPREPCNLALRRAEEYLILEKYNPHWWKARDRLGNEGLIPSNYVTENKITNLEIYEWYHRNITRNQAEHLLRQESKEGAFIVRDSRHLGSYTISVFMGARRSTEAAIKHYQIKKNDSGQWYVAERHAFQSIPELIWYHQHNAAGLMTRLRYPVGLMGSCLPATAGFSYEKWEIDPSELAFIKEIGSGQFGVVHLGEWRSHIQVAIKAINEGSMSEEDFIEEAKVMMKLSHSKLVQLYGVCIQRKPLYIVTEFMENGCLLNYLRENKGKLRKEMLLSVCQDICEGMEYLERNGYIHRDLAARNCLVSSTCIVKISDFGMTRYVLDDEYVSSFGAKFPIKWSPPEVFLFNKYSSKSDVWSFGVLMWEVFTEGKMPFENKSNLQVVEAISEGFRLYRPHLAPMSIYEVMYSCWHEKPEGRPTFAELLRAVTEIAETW
Sequence of UniProt P10721 (whole entry, unmodified, looked up): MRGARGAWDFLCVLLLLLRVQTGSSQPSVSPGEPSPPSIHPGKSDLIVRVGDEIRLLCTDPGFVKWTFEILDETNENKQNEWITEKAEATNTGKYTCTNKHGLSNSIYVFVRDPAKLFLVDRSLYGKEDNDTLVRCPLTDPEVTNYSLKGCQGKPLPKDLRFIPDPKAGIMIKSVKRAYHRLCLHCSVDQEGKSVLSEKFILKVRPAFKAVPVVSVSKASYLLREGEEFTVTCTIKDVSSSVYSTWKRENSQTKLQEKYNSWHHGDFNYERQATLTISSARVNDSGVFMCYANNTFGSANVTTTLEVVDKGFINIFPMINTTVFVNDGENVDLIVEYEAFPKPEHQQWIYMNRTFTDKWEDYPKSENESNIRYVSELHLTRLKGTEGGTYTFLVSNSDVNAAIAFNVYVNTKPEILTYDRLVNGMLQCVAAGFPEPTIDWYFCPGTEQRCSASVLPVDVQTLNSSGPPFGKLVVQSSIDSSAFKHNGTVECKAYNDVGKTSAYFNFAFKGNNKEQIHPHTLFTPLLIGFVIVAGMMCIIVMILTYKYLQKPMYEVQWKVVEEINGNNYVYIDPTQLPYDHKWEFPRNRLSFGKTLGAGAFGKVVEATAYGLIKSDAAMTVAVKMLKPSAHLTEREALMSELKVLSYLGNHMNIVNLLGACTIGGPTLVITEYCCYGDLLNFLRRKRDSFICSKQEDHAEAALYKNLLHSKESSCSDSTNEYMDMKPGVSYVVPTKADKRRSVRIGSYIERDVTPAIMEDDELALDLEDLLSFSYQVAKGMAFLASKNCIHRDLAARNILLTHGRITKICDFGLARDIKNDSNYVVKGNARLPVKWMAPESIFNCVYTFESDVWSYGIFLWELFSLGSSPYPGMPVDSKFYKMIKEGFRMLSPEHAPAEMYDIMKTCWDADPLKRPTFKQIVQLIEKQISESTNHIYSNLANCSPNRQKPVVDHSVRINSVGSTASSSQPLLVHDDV
Sequence of UniProt O15146 (whole entry, looked up): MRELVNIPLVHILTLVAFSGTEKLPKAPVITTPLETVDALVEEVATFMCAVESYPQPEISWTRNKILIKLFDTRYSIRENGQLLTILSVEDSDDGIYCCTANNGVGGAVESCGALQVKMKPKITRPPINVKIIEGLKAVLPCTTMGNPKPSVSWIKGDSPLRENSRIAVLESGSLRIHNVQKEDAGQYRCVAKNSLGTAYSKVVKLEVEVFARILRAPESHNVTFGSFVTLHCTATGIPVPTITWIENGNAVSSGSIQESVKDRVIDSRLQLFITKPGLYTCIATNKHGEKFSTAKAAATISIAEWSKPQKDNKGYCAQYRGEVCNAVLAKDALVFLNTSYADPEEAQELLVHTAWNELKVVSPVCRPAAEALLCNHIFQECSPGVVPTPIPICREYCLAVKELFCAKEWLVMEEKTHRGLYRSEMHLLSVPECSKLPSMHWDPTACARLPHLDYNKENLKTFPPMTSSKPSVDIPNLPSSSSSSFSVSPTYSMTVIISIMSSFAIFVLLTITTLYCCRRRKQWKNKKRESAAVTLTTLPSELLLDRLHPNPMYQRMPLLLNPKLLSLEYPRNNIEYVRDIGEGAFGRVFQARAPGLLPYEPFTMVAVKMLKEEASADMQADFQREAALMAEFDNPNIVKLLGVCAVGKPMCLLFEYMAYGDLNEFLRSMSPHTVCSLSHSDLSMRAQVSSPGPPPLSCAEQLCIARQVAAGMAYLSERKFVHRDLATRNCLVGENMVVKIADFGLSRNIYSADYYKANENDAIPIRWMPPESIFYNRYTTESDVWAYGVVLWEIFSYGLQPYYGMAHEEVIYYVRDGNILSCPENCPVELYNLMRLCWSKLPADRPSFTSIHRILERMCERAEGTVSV
Sequence of UniProt P28482 (whole entry, looked up): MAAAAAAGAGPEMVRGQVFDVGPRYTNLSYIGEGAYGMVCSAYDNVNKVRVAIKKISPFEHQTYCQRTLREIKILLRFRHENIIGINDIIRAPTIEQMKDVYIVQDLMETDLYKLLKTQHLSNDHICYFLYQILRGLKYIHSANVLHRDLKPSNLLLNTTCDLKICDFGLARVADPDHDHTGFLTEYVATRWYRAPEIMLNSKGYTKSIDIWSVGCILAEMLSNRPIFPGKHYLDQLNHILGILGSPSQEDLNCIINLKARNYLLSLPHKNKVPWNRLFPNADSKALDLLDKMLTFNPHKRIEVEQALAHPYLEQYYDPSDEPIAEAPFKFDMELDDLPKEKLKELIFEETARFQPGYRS
Sequence of UniProt P51617 (whole entry, looked up): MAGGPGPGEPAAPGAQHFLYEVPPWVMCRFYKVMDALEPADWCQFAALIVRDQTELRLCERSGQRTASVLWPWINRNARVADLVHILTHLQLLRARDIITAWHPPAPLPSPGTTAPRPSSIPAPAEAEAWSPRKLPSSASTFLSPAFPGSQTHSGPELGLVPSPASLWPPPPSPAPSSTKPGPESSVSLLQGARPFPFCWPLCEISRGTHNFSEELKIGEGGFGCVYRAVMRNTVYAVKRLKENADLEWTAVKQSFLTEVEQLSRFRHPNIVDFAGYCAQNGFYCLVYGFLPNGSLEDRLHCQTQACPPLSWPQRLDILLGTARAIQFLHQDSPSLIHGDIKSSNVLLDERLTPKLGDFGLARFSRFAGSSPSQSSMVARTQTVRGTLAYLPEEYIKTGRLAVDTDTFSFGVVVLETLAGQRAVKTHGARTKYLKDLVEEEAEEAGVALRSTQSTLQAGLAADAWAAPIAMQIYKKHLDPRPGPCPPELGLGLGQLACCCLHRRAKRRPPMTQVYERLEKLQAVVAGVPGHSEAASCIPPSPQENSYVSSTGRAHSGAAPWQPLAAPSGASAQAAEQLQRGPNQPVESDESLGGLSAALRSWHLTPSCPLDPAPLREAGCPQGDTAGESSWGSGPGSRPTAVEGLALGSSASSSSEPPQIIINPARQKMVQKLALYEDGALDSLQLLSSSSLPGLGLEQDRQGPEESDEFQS
Sequence of UniProt P46734 (whole entry, looked up): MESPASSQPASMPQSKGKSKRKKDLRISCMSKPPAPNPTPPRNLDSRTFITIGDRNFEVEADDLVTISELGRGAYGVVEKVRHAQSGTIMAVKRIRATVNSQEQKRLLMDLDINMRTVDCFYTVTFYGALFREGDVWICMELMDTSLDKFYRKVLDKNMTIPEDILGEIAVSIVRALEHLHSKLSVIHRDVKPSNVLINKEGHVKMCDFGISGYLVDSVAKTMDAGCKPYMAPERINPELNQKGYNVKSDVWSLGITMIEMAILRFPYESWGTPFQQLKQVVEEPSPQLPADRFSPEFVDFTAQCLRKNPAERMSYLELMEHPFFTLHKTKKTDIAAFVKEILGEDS

Block 1 — host: mouse; matrix: microsomes or S9; tested at: 2 µM; time: 0.5 h; quantity: remaining compound
SMILES = COc1cc(Nc2ncnc3cc(OC)c(OCC4CN(C(=O)OC(C)(C)C)CCO4)cc23)ccc1Cl (centres unmarked); result = 8.59%
SMILES = CC(C)=CCN1CCN(c2nc3ccccc3s2)CC1CCO (centres unmarked); result = 0.00328%
SMILES = Cc1cc(S(=O)(=O)N[C@H]2CC[C@H]2NC2CCN(C(C)C)CC2)c(C)s1; result = 2.3%
SMILES = O=S1(=O)c2cccc3cccc(c23)N1CCc1ccccc1; result = 17.6%
SMILES = CCCc1nnc(-c2cc3ccccc3n2Cc2ccccc2)o1; result = 0.0177%

Block 2 — cell line: mouse MPNST tumor cells; method: high-content nuclear imaging; item: cell number; tested at: 10 µM; time: 12 h; setting: mean of 2 replicates; relative to: plate mean; direction: higher = more cells; quantity: nuclei count
Compound = CO[C@H]1/C=C/O[C@@]2(C)Oc3c(C)c(O)c4c(O)c(c(/C=N/N5CCN(C6CCCC6)CC5)c(O)c4c3C2=O)NC(=O)/C(C)=C\C=C\[C@H](C)[C@H](O)[C@@H](C)[C@@H](O)[C@@H](C)[C@H](OC(C)=O)[C@@H]1C; result = 4.6 z-score
Compound = OCCN(CCO)c1ccc(C(c2ccc(Cl)cc2)c2ccc(N(CCO)CCO)cc2)cc1; result = 0.565 z-score
Compound = CCC1(c2ncc[nH]2)Cc2ccccc2O1 (centres unmarked); result = 1.07 z-score
Compound = Cc1ccc(/C=N/NC(=O)c2ccccc2Oc2ccccc2)o1; result = 0.71 z-score
Compound = COc1ccc(CCC(=O)Nc2nc3ccc(Cl)cc3s2)cc1OC; result = 1.05 z-score
Compound = C=C1c2c(Cl)ccc(O)c2C(O)=C2C(=O)[C@]3(O)C(O)=C(C(N)=O)C(=O)[C@@H](N(C)C)[C@@H]3[C@@H](O)[C@H]12.O=C(O)c1cc(S(=O)(=O)O)ccc1O; result = 1.28 z-score
Compound = CC1(C)C[C@@H]1C(=O)N/C(=C\CCCCSC[C@H](N)C(=O)O)C(=O)O; result = 0.723 z-score
Compound = CC(C)N1CCN(c2ccc(C(=O)c3c(-c4ccc(O)cc4)sc4cc(O)ccc34)cc2)CC1; result = -1.1 z-score
Compound = Nc1ccc(-c2nc3ccc(-c4nc5ccc(N)cc5[nH]4)cc3[nH]2)cc1; result = 4.78 z-score
Compound = CCCCCCCCNC(C)C(O)c1ccc(SC(C)C)cc1 (centres unmarked); result = -5.03 z-score

Block 3 — action: agonist; quantity: EC50
Target: Beta-1 adrenergic receptor (ADRB1, Homo sapiens, UniProt P08588)
Sequence of UniProt P08588 (whole entry, looked up): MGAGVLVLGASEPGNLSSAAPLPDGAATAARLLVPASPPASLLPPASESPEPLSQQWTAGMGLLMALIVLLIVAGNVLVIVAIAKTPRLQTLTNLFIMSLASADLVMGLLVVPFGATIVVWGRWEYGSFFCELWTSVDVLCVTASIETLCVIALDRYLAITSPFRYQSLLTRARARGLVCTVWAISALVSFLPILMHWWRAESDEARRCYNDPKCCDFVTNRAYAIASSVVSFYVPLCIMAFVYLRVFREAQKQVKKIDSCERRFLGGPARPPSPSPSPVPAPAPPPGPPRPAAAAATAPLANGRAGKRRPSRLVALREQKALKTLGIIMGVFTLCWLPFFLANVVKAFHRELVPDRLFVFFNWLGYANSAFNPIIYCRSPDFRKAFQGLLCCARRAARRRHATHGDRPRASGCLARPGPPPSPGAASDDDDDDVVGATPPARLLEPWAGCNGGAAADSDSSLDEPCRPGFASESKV
SMILES = OC(CNc1ncccn1)c1ccccc1 (centres unmarked); result = ≥ 100 µM
SMILES = CC(C)c1ccc(C(=O)N2CC(CNC(=O)C3CCOCC3)C3(C2)CN(c2ccccc2)C3)cc1 (centres unmarked); result = ≥ 100 µM
SMILES = COc1cc(CNCCC(C)C)ccc1OCC(O)CN1CCSCC1 (centres unmarked); result = ≥ 100 µM
SMILES = COc1ccccc1N1CCN(C(=O)C(C)[C@@H]2CCc3c(C)cc(OCCN4CCOCC4)c(C)c3C2)CC1 (some centres unmarked); result = ≥ 100 µM
SMILES = COc1ccccc1C(=O)Nc1ccc([C@@H](O)[C@H]2COCC(=O)N2Cc2ccc(F)cc2)cc1; result = ≥ 100 µM
SMILES = Cc1ccc2c(C(=O)N3CCCC3C)cc(-c3cnn(C)c3)nc2c1 (centres unmarked); result = ≥ 100 µM
SMILES = COC(=O)c1c(OC)cc2c(c1C)Oc1c(Cl)c(O)c(Cl)c(C)c1C(=O)O2; result = ≥ 100 µM
SMILES = O=C1OC2(c3ccc(O)cc3Oc3cc(O)ccc32)c2cccc(N=C=S)c21; result = 22.4 µM
SMILES = O=C(Nc1ccccc1C(=O)N1CCOCC1)c1ccc2ccccc2n1; result = ≥ 100 µM
SMILES = O=C(Cc1ccccc1)Nc1ccc([C@@H](O)[C@H]2COCC(=O)N2Cc2ccccc2F)cc1; result = ≥ 100 µM
SMILES = Cc1oc(C(O)c2cccc(O)c2)nc1C(=O)NC1CCOCC1 (centres unmarked); result = ≥ 100 µM
SMILES = O=c1cc(-c2cnccn2)oc2c(-c3cn[nH]c3)nccc12; result = ≥ 100 µM

Block 4 — observed: enzyme activity; action: inhibitor; tested at: 0.5 µM; relative to: control; quantity: remaining activity
Target: Serine/threonine-protein kinase B-raf (BRAF, Homo sapiens, UniProt P15056)
Sequence of UniProt P15056 (whole entry, looked up): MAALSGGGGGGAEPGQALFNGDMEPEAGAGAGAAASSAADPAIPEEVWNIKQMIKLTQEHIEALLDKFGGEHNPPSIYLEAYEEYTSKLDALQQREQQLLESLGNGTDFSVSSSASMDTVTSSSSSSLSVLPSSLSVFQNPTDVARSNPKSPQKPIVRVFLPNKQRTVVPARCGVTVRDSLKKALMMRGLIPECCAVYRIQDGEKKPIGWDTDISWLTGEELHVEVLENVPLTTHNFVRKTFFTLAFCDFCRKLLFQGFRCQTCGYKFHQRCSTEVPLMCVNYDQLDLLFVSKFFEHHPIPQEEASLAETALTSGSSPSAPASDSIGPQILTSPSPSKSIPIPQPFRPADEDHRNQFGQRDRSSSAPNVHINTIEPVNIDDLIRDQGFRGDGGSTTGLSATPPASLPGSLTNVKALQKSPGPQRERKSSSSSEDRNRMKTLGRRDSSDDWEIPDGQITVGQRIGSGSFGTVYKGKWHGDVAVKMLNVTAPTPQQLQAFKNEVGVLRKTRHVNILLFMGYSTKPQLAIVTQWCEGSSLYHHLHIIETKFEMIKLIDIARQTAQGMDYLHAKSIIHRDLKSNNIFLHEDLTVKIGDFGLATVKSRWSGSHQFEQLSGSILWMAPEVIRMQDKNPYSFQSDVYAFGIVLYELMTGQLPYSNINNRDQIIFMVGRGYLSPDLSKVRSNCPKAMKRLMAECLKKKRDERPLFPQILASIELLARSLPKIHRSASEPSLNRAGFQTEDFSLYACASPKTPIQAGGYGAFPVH
SMILES = CCOc1nc(NC(=O)Cc2cc(OC)ccc2OC)cc(N)c1C#N; result = 99.1%
SMILES = CCN(CC)CCNC(=O)c1c(C)[nH]c(/C=C2\C(=O)Nc3ccc(F)cc32)c1C; result = 106%
SMILES = O=C(Nc1cccc(Nc2nccc(Nc3cccc(C(F)(F)F)c3)n2)c1)C1CC1; result = 104%
SMILES = O=C1c2ccccc2-c2n[nH]c3cccc1c23; result = 109%
SMILES = O=C1C(Cl)=C(N2C(=O)CCC2=O)C(=O)c2ccccc21; result = 96.3%
SMILES = N#Cc1c(NC(=O)c2cccc3ccccc23)sc2c1CCCC2; result = 95.2%

Block 5 — method: competition with immobilised ligand; tested at: 0.1 µM; quantity: remaining binding
SMILES: CNC(=O)c1ccc(Nc2ncc(C(F)(F)F)c(NCc3nccnc3N(C)S(C)(=O)=O)n2)cc1
target = Muscle, skeletal receptor tyrosine-protein kinase (MUSK, Homo sapiens, UniProt O15146); observed = cell-free assay; result = 100%
target = Serine/threonine-protein kinase 38-like (STK38L, Homo sapiens, UniProt Q9Y2H1); observed = cell-free assay; result = 73%
target = Tyrosine-protein kinase ABL1, non-phosphorylated (ABL1, Homo sapiens, UniProt P00519, T315I); observed = cell-free assay; result = 93%
target = Mitogen-activated protein kinase 6 (MAPK6, Homo sapiens, UniProt Q16659); observed = cell-free assay; result = 71%
target = Death-associated protein kinase 1 (DAPK1, Homo sapiens, UniProt P53355); observed = cell-free assay; result = 82%
target = Dual specificity mitogen-activated protein kinase kinase 3 (MAP2K3, Homo sapiens, UniProt P46734); observed = cell-free assay; result = 48%
target = Phosphatidylinositol 4,5-bisphosphate 3-kinase catalytic subunit alpha isoform (PIK3CA, Homo sapiens, UniProt P42336, E542K); observed = cell-free assay; result = 49%
target = Serine/threonine-protein kinase Nek4 (NEK4, Homo sapiens, UniProt P51957); observed = cell-free assay; result = 76%
target = Epidermal growth factor receptor (EGFR, Homo sapiens, UniProt P00533); observed = cell-free assay; result = 88%
target = Mitogen-activated protein kinase 1 (MAPK1, Homo sapiens, UniProt P28482); observed = cell-free assay; result = 76%
target = STE20-like serine/threonine-protein kinase (SLK, Homo sapiens, UniProt Q9H2G2); observed = cell-free assay; result = 53%
target = RAC-gamma serine/threonine-protein kinase (AKT3, Homo sapiens, UniProt Q9Y243); observed = cell-free assay; result = 36%
target = Tyrosine-protein kinase TXK (TXK, Homo sapiens, UniProt P42681); observed = binding; result = 98%
target = Interleukin-1 receptor-associated kinase 1 (IRAK1, Homo sapiens, UniProt P51617); observed = cell-free assay; result = 77%
target = Mast/stem cell growth factor receptor Kit (KIT, Homo sapiens, UniProt P10721, D816V); observed = cell-free assay; result = 80%
target = Ribosomal protein S6 kinase alpha-4, C-terminal kinase domain (RPS6KA4, Homo sapiens, UniProt O75676); observed = cell-free assay; result = 57%
target = Cyclin-dependent kinase 8 (CDK8, Homo sapiens, UniProt P49336); observed = cell-free assay; result = 50%
target = Serine/threonine-protein kinase haspin (HASPIN, Homo sapiens, UniProt Q8TF76); observed = cell-free assay; result = 100%
target = Cyclin-dependent kinase-like 5 (CDKL5, Homo sapiens, UniProt O76039); observed = cell-free assay; result = 100%
target = Casein kinase II subunit alpha (CSNK2A1, Homo sapiens, UniProt P68400); observed = cell-free assay; result = 61%
target = Dual specificity mitogen-activated protein kinase kinase 7 (MAP2K7, Homo sapiens, UniProt O14733); observed = cell-free assay; result = 97%
target = Tyrosine-protein kinase ABL1, phosphorylated (ABL1, Homo sapiens, UniProt P00519, E255K); observed = binding; result = 100%
target = Calcium/calmodulin-dependent protein kinase type 1G (CAMK1G, Homo sapiens, UniProt Q96NX5); observed = cell-free assay; result = 89%

Repeated from above (block 4):
SMILES = CCOc1nc(NC(=O)Cc2cc(OC)ccc2OC)cc(N)c1C#N; result = 99.1%
SMILES = CCN(CC)CCNC(=O)c1c(C)[nH]c(/C=C2\C(=O)Nc3ccc(F)cc32)c1C; result = 106%
SMILES = O=C(Nc1cccc(Nc2nccc(Nc3cccc(C(F)(F)F)c3)n2)c1)C1CC1; result = 104%
SMILES = O=C1c2ccccc2-c2n[nH]c3cccc1c23; result = 109%
SMILES = O=C1C(Cl)=C(N2C(=O)CCC2=O)C(=O)c2ccccc21; result = 96.3%
